Results collected from several papers.
Protocols differ between the studies behind these lines. ± gives the spread as reported.
UniProt P02730, sequence (whole entry, looked up): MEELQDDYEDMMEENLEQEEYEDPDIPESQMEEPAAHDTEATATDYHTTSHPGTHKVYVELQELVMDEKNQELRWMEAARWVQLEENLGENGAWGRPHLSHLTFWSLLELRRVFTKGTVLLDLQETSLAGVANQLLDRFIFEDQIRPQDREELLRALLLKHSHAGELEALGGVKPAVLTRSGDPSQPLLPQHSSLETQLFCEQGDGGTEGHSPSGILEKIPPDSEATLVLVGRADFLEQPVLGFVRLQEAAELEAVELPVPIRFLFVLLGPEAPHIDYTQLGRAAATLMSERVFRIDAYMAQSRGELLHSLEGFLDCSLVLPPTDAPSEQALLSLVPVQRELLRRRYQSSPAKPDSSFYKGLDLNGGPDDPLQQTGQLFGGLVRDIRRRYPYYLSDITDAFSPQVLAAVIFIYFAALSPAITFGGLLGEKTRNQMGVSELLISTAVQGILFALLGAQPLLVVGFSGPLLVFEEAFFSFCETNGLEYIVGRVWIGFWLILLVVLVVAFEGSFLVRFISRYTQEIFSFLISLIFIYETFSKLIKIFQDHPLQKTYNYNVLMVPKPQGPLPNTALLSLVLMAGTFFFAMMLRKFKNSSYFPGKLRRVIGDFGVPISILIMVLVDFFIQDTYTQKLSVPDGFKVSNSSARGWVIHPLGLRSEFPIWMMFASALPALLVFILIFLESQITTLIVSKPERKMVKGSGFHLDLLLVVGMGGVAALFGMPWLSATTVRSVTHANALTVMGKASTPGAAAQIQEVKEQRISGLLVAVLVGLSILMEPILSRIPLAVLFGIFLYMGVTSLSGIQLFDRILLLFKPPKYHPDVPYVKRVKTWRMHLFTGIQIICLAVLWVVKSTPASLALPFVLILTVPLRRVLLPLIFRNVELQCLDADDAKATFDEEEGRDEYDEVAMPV
UniProt Q80W57, sequence (whole entry, looked up): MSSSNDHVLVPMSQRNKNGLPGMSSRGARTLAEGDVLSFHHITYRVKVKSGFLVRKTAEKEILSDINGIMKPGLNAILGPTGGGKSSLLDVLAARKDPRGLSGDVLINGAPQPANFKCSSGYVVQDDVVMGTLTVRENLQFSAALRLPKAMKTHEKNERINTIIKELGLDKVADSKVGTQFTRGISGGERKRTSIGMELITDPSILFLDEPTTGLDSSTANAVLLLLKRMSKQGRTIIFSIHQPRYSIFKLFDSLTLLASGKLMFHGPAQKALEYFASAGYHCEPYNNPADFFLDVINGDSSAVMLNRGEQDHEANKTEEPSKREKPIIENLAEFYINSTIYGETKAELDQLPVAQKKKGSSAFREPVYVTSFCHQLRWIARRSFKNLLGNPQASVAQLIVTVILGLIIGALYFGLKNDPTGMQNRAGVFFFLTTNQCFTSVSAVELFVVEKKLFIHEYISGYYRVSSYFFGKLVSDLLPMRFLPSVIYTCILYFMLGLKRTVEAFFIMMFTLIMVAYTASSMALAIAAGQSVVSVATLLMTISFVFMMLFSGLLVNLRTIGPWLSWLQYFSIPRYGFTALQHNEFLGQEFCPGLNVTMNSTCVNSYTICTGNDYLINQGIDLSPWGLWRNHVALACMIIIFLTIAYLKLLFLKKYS
UniProt Q5S006, sequence (whole entry, looked up): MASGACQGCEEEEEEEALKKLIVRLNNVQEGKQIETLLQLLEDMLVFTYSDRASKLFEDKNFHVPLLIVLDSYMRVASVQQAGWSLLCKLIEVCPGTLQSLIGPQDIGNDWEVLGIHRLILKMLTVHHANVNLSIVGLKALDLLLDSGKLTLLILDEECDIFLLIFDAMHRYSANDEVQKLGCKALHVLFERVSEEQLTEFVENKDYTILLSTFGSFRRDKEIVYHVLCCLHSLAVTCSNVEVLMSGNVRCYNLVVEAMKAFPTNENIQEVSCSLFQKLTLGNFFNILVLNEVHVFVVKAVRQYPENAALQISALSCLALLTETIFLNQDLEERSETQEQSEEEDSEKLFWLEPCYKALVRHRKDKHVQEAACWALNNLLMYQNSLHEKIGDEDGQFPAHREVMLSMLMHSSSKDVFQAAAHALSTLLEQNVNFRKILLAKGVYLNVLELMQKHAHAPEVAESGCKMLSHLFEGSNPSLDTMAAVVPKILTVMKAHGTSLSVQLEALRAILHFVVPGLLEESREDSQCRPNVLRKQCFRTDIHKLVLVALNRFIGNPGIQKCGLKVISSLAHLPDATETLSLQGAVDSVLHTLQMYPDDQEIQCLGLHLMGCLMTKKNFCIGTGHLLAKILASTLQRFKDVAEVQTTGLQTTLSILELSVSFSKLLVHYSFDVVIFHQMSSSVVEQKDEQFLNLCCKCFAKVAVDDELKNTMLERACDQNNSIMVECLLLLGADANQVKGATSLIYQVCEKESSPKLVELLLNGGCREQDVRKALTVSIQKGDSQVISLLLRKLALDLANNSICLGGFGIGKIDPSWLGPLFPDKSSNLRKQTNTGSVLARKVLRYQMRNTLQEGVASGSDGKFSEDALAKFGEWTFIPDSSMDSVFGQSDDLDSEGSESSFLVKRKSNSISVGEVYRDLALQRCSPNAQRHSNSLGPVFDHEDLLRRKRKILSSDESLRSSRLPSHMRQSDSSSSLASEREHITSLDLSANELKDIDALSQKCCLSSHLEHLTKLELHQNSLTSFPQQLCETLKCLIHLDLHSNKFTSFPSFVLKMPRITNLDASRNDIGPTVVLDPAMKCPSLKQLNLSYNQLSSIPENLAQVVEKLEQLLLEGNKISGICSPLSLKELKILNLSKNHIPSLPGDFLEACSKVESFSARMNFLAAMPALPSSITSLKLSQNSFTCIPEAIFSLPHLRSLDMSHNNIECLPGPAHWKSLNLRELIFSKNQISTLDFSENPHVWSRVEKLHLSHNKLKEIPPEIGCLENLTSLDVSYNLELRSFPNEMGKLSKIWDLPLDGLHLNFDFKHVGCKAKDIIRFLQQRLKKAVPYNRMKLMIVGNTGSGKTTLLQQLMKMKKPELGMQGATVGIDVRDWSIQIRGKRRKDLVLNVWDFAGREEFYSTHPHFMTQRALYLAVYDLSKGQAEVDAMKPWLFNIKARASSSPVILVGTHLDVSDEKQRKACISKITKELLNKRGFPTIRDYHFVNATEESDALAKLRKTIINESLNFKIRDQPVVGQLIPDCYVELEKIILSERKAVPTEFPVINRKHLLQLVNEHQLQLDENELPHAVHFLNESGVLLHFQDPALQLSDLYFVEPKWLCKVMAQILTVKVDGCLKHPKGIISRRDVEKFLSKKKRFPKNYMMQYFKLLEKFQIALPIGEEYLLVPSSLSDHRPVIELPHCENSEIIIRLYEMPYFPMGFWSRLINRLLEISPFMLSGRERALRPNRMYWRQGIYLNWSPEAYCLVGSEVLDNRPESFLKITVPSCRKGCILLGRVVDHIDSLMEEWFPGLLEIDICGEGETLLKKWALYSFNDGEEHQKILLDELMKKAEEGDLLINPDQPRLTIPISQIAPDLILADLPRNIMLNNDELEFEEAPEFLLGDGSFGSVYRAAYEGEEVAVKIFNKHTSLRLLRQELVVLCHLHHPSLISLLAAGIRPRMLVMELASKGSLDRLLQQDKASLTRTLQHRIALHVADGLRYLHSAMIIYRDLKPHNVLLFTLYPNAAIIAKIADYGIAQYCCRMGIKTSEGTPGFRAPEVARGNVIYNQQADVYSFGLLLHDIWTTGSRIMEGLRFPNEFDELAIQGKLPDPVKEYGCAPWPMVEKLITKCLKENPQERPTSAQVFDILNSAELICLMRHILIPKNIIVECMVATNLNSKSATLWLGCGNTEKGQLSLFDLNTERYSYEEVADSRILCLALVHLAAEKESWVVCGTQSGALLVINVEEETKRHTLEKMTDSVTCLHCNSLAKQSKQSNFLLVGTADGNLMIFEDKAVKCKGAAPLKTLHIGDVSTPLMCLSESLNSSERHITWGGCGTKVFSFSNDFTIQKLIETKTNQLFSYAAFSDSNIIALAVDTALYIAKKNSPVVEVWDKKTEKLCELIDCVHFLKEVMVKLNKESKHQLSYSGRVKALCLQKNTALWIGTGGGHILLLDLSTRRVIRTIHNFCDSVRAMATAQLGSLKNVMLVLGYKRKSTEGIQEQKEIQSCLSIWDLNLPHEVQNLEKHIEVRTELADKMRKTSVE

acyl ghrelin (human)
tissue/serum ratio (wild-type mice, midbrain; intravenous, dose not given, 10 min, vascular space corrected): 6.16 µL/g

CCN1CCN(Cc2ccc(Nc3ncc(F)c(-c4cc(F)c5nc(C)n(C(C)C)c5c4)n3)nc2)CC1
Vdss (human, plasma; intravenous, 0.4 mg): 724 L

COc1ccc2c(c1)c(CC(=O)O)c(C)n2C(=O)c1ccc(Cl)cc1
thermodynamic solubility (shake-flask; PEG400; 37 °C): 135 ± 11.3 mg/g

O=C(O)c1cc(/N=N/c2ccc(S(=O)(=O)Nc3ccccn3)cc2)ccc1O
Tmax (Abcg2 (Rattus norvegicus, UniProt Q80W57); male Sprague-Dawley rat, plasma; oral, 2 mg/kg): 26.3 min

O=C(CCCCCCC(=O)Nc1ccccc1)NO
AUC(0-7 h) (human patients, serum; oral, 600 mg, cycle -1 day 2): 4.72 µM·h

CCCC[C@@H]1NC(=O)[C@@H](NC(=O)[C@H](CCC(=O)O)NC(=O)CNC(=O)CN2CCN(CC(=O)O)CCN(CC(=O)O)CCN(CC(=O)O)CC2)CCCCNC(=O)C[C@@H](C(N)=O)NC(=O)[C@H](C(C)C)NC(=O)[C@@H]2CCCN2C(=O)[C@H](CCCNC(=N)N)NC(=O)CNC(=O)[C@H](Cc2c[nH]c3ccccc23)NC(=O)[C@H](CCCNC(=N)N)NC(=O)[C@@H](Cc2ccccc2)NC(=O)[C@H](Cc2c[nH]cn2)NC(=O)[C@H](CCC(=O)O)NC1=O [indium-111 labelled]
tissue uptake (normal C57 mice, lung; intravenous, 0.037 MBq, 2 h): 0.08 ± 0.08 %ID/g

carbamazepine
dissolved amount (USP paddle dissolution; simulated gastric fluid; 30 min, 37 °C, 75 rpm): 13.6%

[2H]C([2H])([2H])Oc1cc2c(cc1OC([2H])([2H])[2H])C1CC(=O)C(CC(C)C)CN1CC2 (stereo not drawn)
dose-normalized AUC(0-t) (refers to: deuterated α-HTBZ; healthy human volunteers, plasma; oral, 24 mg single dose, standard meal): 16.2 ng·h/mL

CC(C)[C@H](NC(=O)[C@@H]1CCCN1C(=O)[C@H](CCCNC(=N)N)NC(=O)[C@H](CS)NC(=O)[C@H](Cc1c[nH]c2ccccc12)NC(=O)[C@H](CCCNC(=N)N)NC(=O)[C@@H](Cc1ccccc1)NC(=O)[C@H](Cc1c[nH]cn1)NC(=O)[C@H](CCC(=O)O)NC(=O)[C@H](CS)NC(=O)[C@H](CS)NC(=O)[C@H](CCCCN)NC(=O)[C@@H]1CC(=O)N[C@@H](CCCNC(=N)N)C(=O)N[C@@H](C)C(=O)N[C@@H](CC(=O)O)C(=O)N[C@H](Cc2ccc(O)cc2)C(=O)N1)C(N)=O [technetium-99m labelled]
tissue uptake (C57 mice, liver; intravenous, 0.037 MBq, 2 h): 2.22 ± 0.39 %ID/g

Nc1ncnc2c1ncn2[C@@H]1O[C@H](COP(=O)(O)OP(=O)(O)O)[C@@H](O)[C@H]1O
Ki (Lrrk2 (Mus musculus, UniProt Q5S006); enzyme activity, inhibitor, TR-FRET; Ki,e, with: PLK-peptide varied): 100 ± 30 µM

CCCSc1ccc2nc(NC(=O)OC)[nH]c2c1
thermodynamic solubility (shake-flask; soybean oil; 37 °C): 0.17 ± 0.01 mg/g

CC(C)[C@H](NC(=O)[C@@H]1CCCN1C(=O)[C@H](CCCNC(=N)N)NC(=O)[C@H](CS)NC(=O)[C@H](Cc1c[nH]c2ccccc12)NC(=O)[C@H](CCCNC(=N)N)NC(=O)[C@@H](Cc1ccccc1)NC(=O)[C@H](Cc1c[nH]cn1)NC(=O)[C@H](CCC(=O)O)NC(=O)[C@H](CS)NC(=O)[C@H](CS)NC(=O)[C@H](CCCCN)NC(=O)[C@@H]1CC(=O)N[C@@H](CCCNC(=N)N)C(=O)N[C@@H]([C@@H](C)O)C(=O)N[C@@H](CC(=O)O)C(=O)N[C@H](Cc2ccc(O)cc2)C(=O)N1)C(N)=O [technetium-99m labelled]
tissue uptake (C57 mouse, B16/F1 melanoma, kidneys; dose not given, 2 h, with: L-lysine 15 mg co-injected): 60.7 ± 12.1 %ID/g

O=[N+]([O-])c1ccc(CNc2nc(NCc3cccc(C(F)(F)F)c3)nc3[nH]cnc23)cc1
tissue concentration (chow-fed mice, liver, muscle, adipose tissue; intraperitoneal, 20 mg/kg, 6 h): 10 to 25 µM

COC(=O)C[C@](O)(CCCC(C)(C)O)C(=O)O[C@@H]1C(OC)=C[C@]23CCCN2CCc2cc4c(cc2[C@H]13)OCO4
tissue concentration (CD1 mice, esophagus; oral, 1 mg/kg, 2 h): not detected

O=C(O)c1ccc(O)cc1
maximal peptide depletion (cysteine peptide Ac-RFAACAA-COOH; DPRA RapidFire-MS/MS; 24 h, pH 7.5, with: 5.0 µM cysteine peptide): -14.4%

COc1cc(N)c(Cl)cc1C(=O)NC1CCN(CCCOc2ccc(F)cc2)CC1OC (stereo not drawn)
QTc change (male Hartley guinea pig, anaesthetized; intravenous infusion, 0.3 mg/kg, 10 min infusion; baseline: baseline): 6.6 ± 2.4%

O=C(C1CCCCC1)N1CC(=O)N2CCc3ccccc3C2C1 (stereo not drawn)
thermodynamic solubility (shake-flask; polysorbate 80; 37 °C): 19.2 ± 1.2 mg/g

CS/C(S)=N/CCCC[S+](C)[O-] (racemic)
mRNA fold change (RT-PCR, refers to: Cyp2c7; rat, liver; oral gavage, 200 mg/kg, dosed for four days; baseline: vehicle): 0.774

Cc1ccc(S(=O)(=O)NC(=O)NN2CC3CCCC3C2)cc1 (stereo not drawn)
stability time (HPLC; simulated gastric fluid; pH 1, 37 °C): 6 h

NC(=O)CC[C@@H]1NC(=O)[C@H](Cc2ccccc2)NC(=O)[C@H](Cc2ccc(O)cc2)NC(=O)CCSSC[C@@H](C(=O)N2CCC[C@H]2C(=O)N[C@H](CCCN=C(N)N)C(=O)NCC(N)=O)NC(=O)[C@H](CC(N)=O)NC1=O
bench top stability (UPLC-MS/MS; human plasma; 3.05 pg/mL, 6 h, room temperature): 95.7%

[I-].[K+]
Kd (SLC4A1 (Homo sapiens, UniProt P02730); Cl- exchange, inhibitor, 36Cl flux, two-site model; erythrocytes; pH 12, only site D protonated, unbuffered point excluded): 13000 µM

CNCc1ccc(-c2[nH]c3cc(F)cc4c3c2CCNC4=O)cc1
AUC(0-t) (human, fasted, plasma; oral, 600 mg, 24 h, single dose, arithmetic mean): 10000 ng·h/mL

Nc1ncnc2c1ncn2[C@@H]1O[C@H](COP(=O)(O)OP(=O)(O)O)[C@@H](O)[C@H]1O
Kd (ATP1A1 (Sus scrofa, UniProt P05024); binding, radioligand binding; pig membranes; pH 7.7, 0 °C, ionic strength 78 mM, with: NaCl 19 mM): 0.27 ± 0.004 µM

NC(=O)c1cnc2[nH]ccc2c1N[C@@H]1[C@@H]2CC3C[C@H]1C[C@@](O)(C3)C2
AUC(0-inf) ratio (healthy men; oral, 20 to 200 mg; baseline: Japanese over Caucasian): 1.4 fold

Cc1ccc2oc(=O)ccc2c1
peptide depletion (cysteine peptide Ac-RFAACAA-COOH; DPRA RapidFire-MS/MS; 24 h, pH 7.5, with: 5.0 µM cysteine peptide): inactive

NC(=O)[C@H](Cc1ccccc1)NC(=O)[C@]1(Cc2ccccc2)CCN1C(=O)OCc1ccccc1
minimum cytotoxic concentration (HEL; microscopic cell morphology): 100 µM

C[C@@H]1CCN(C(=O)CC#N)C[C@@H]1N(C)c1ncnc2[nH]ccc12
urinary excretion unchanged (Japanese human subjects, urine; 15 mg twice daily, 12 h, steady state): 23.3%

Repeated from above:
Cc1ccc2oc(=O)ccc2c1
peptide depletion (cysteine peptide Ac-RFAACAA-COOH; DPRA RapidFire-MS/MS; 24 h, pH 7.5, with: 5.0 µM cysteine peptide): inactive

CCCSc1ccc2nc(NC(=O)OC)[nH]c2c1
thermodynamic solubility (shake-flask; soybean oil; 37 °C): 0.17 ± 0.01 mg/g
